Results pooled from the literature.
Protocols differ between the studies behind these lines. ± marks the error that the study gave.

CO[C@H]1C[C@@H]2CC[C@@H](C)[C@@](O)(O2)C(=O)C(=O)N2CCCC[C@H]2C(=O)O[C@H]([C@H](C)C[C@@H]2CC[C@@H](OC(=O)NCCOCCOCCOCCOCCOCCOCCOCCOCCC(=O)N3CCc4cc(Cn5nc(-c6ccc7oc(N)nc7c6)c6c(N)ncnc65)ccc4C3)[C@H](OC)C2)C[C@@H](O)[C@H](C)/C=C(\C)[C@@H](O)[C@@H](OC)C(=O)[C@H](C)C[C@H](C)/C=C/C=C/C=C/1C gave a TRAE incidence of 25% (phase 1 dose escalation, measured: vomiting; advanced solid tumour patients; intravenous, 16 mg weekly, any grade).
Under “treatment-emergent adverse events”, CC(C)(O)c1cc(Nc2cc(Oc3cn(C4CC4)nc3C3CCOCC3)ccn2)ccn1 is recorded as 0% (Diarrhea; advanced cancer patients, dose escalation; oral, dose not given, 3 weeks on/1 off, all causality grade ≥3).
Under “dose fraction in permeate”, Brc1ccc(Oc2cc(Br)c(Br)cc2Br)c(Br)c1 is recorded as 17.8% (ultrafiltration; cow milk whey; 2000 nM nominal in whole milk).
N=C(N)NCCC[C@@H](NC(=O)[C@@H](N)Cc1ccccc1)C(=O)N[C@@H](Cc1ccccc1)C(=O)N[C@@H](CCCCN)C(N)=O — result for “fraction of dose excreted in urine”: 31% (early Huntington's disease patients, urine; subcutaneous, 25 mg, 5.833 h, mean).
Under “Cmax at NOAEL”, C[C@H]1CN(C(=O)CC#N)[C@]12CCN(c1ncnc3[nH]ccc13)C2 is recorded as 5340 ng/mL (rat female; oral, 30 mg/kg repeated daily, 3 months, repeated-dose toxicity study).
For CCN(CC)CCCC(C)Nc1c2ccc(Cl)cc2nc2ccc(OC)cc12 (centres unmarked), the CC50 was 2110 nM (African green monkey cells; 3 (unit not given)).
O[C@H]1CCCN[C@@H]1CCCn1cnc2c(Cl)c(Cl)ccc21: “median Tmax at steady state” 4 h (healthy humans, plasma; oral, 150 mg twice daily).
Under “subjects with TEAE”, C[C@]1(CO)Cc2ncn(-c3ccc(C#N)c(Cl)c3)c2C(=O)O1 is recorded as 16.7% (healthy Japanese subjects; dose not given, single dose, all doses).
CC(C)(C(=O)NC1C2CC3CC1CC(C(N)=O)(C3)C2)N1CCN(c2ccc(C(F)(F)F)cn2)CC1 (centres unmarked): “dose-normalised free Cmax” 0.159 (ng/mL)/mg (human, plasma; 2 mg once daily, 5 days, median).
For CCNCCCNC/C=C\CNCCCNCC, “drug-related TEAE, respiratory disorders” read 8.7% (human, advanced solid tumours; intravenous, dose not given; reference: patients).
The prothrombin time of CCc1ccc(CC/C=C/c2ccc3c(c2)C(=O)CC3)cc1 is reported as 12.9 s (Sprague-Dawley rat, male, blood; oral, 120 mg/kg/day, 14 days).
For N[C@@H]1c2ccccc2OC12CCN(c1cnc3c(N4CCCc5ncccc54)n[nH]c3n1)CC2, “TEAE causing dose reduction” read 0% (advanced solid tumour patients; oral, 20 mg once daily).
Cc1cccc(Cn2nc(C3CC3)c3c(NC(=O)c4cnc5cc(OCCN6CCN(C)CC6)ccn45)cccc32)n1 — result for “adverse events incidence”: 27.3% (measured: Fatigue; human platinum-resistant ovarian cancer; oral, dose not given, all-causality).
For O=C1Nc2cc3[nH]nc(-c4ccncc4)c3cc2CN1Cc1ccccc1, “patients with vitreous floaters” read 0% (CTCAE v4.03; human, relapsed or refractory advanced solid tumours; intravenous, 4.8 mg/kg).
For NC(=O)[C@H]1CCN(c2ncnc(N)c2F)C[C@@H]1N1CCC[C@@H](Nc2cc(Cl)cc(C(F)(F)F)c2)C1=O, “grade ≥3 bilirubin increase” read 25% (B-cell malignancy patients; oral, 164 mg twice daily, dose).
The albumin/globulin ratio of COc1cccc(Oc2ccccc2NC(=O)CNC(=O)c2cccc3ccccc23)c1 is reported as 1.3 (esterase-deficient SCID mice, male; oral, 40 mg/kg/day, 14 days, toxicity study).
Cc1ncnc2c1ccn2[C@@H]1C[C@H](Oc2cc(C(F)F)c(F)c3c2CNCC3)[C@@H](O)[C@H]1O has a Dysgeusia incidence of 9% (patients; dose not given, any grade; reference: patients).
With C[C@@H]1NC(=O)[C@H](CCCCNC(=O)CO/N=C/C(=O)NCCCC[C@@H]2NC(=O)[C@@H](Cc3ccccc3)NC(=O)[C@H](CC(=O)O)NC(=O)CNC(=O)[C@H](CCCNC(=N)N)NC2=O)NC(=O)CNC(=O)[C@@H]2CCCN2C(=O)[C@H](CCCCNC(=O)CO/N=C/C(=O)NCCCC[C@@H]2NC(=O)[C@@H](Cc3ccccc3)NC(=O)[C@H](CC(=O)O)NC(=O)CNC(=O)[C@H](CCCNC(=N)N)NC2=O)NC(=O)[C@H](CCCCNC(=O)CCNC(=O)CCNC(=O)CCNC(=O)[C@H](CCCCN)NC(=O)[C@H](Cc2ccccc2)NC(=O)CNC(=O)CN2CCCNCCNCCCNCC2)NC(=O)[C@H](CCCCNC(=O)CO/N=C/C(=O)NCCCC[C@@H]2NC(=O)[C@@H](Cc3ccccc3)NC(=O)[C@H](CC(=O)O)NC(=O)CNC(=O)[C@H](CCCNC(=N)N)NC2=O)NC(=O)CNC(=O)[C@@H]2CCCN2C(=O)[C@H](CCCCNC(=O)CO/N=C/C(=O)NCCCC[C@@H]2NC(=O)[C@@H](Cc3ccccc3)NC(=O)[C@H](CC(=O)O)NC(=O)CNC(=O)[C@H](CCCNC(=N)N)NC2=O)NC1=O [copper-64 labelled] the tissue uptake was 0.15 ± 0.01 %ID/g (normal mice, blood; intravenous, 0.74 MBq, 3 h post-injection).
The DT50 of COc1ccnc(C(=O)N[C@H]2COC(=O)[C@H](Cc3ccccc3)[C@@H](OC(=O)C(C)C)[C@H](C)OC2=O)c1OCOC(=O)C(C)C is reported as 5.29 days (field soil, loamy sand; actual, Germany).
Under “maximum tolerated dose”, COc1c(C)cnc(Cn2cc(C#CCCOP(=O)(O)O)c3c(Cl)nc(N)nc32)c1C is recorded as 144 mg/m² (human, advanced solid tumours; intravenous infusion, twice weekly, 21-day cycles).
For O=c1nc(NO)ccn1[C@@H]1O[C@H](CO)[C@@H](O)[C@H]1O, the freeze-thaw stability was 97.8 ± 2.56% (rat maternal placenta dialysate; 1000 ng/mL, high concentration, three cycles, together with: molnupiravir 250 ng/mL).
For Clc1ccc(-c2ccccc2)cc1, the creatinine was 0.4 ± 0.1 mg/dL (Sprague-Dawley rats, female, serum; inhalation, 23 µg/rat, 1 h after exposure).
For CC(C)[C@@H]1NC(=O)CNC(=O)[C@H](CC(N)=O)NC(=O)[C@H](CCCNC(=N)N)NC(=O)[C@H](Cc2ccc(O)cc2)NC(=O)[C@H](C(C)C)NC(=O)[C@@H](NC(=O)[C@@H](NC(=O)[C@H](CC(N)=O)NC(=O)[C@H](Cc2c[nH]c3ccccc23)NC(=O)[C@H](C)NC(=O)[C@H](Cc2ccccc2)NC(=O)CN)C(C)C)CSSC[C@@H](C(=O)N[C@@H](Cc2cnc[nH]2)C(=O)N[C@@H](CCCNC(=N)N)C(=O)N[C@@H](CCCNC(=N)N)C(=O)N[C@@H](C)C(=O)N[C@@H](CC(N)=O)C(N)=O)NC(=O)[C@H](C(C)C)NC(=O)[C@H](CCCNC(=N)N)NC1=O, the monocytes was 3.09 ± 0.35% (ICR mice, blood; intraperitoneal, 10 mg/kg, day 5).
COc1cc2c(Oc3ccc4[nH]c(C)cc4c3F)ccnc2cc1OCC1(N)CC1 — result for “grade 1 or 2 Hematuria”: 0% (paediatric recurrent refractory sarcoma; 10 mg).
O=S(=O)(Nc1ccccc1)c1ccc(NC(=S)Nc2ccccc2)cc1: “blood cell fraction” 1.16% (measured: EO%; male mouse, blood; oral, 5 mg/kg daily, 14 days).
O=C(Nc1ccccc1)C1CCN(C(=O)Oc2cccnc2)CC1 — result for “subjects with ear discomfort”: 0% (adverse event reporting; healthy women; oral, 60 mg, 7 days).

For quick reference, copied from above:
CC(C)(C(=O)NC1C2CC3CC1CC(C(N)=O)(C3)C2)N1CCN(c2ccc(C(F)(F)F)cn2)CC1 (centres unmarked): “dose-normalised free Cmax” 0.159 (ng/mL)/mg (human, plasma; 2 mg once daily, 5 days, median).
For CCNCCCNC/C=C\CNCCCNCC, “drug-related TEAE, respiratory disorders” read 8.7% (human, advanced solid tumours; intravenous, dose not given; reference: patients).
